Measurements collected from several papers.
Numbered parts are unrelated; each lists some results of a single study. Substitutions count along the parent as printed.
Sequence of UniProt P78368 (whole entry, looked up): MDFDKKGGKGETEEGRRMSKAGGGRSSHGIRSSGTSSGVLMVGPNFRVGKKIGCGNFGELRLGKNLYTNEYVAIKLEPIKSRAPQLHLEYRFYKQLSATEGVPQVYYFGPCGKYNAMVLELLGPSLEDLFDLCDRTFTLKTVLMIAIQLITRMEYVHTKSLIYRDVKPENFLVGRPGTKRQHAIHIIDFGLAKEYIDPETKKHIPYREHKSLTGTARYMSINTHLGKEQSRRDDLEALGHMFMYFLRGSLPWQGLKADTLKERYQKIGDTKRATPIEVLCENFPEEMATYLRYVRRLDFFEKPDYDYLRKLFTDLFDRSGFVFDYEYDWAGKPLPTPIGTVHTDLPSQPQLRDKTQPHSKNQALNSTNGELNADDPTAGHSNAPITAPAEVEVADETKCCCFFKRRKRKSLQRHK
Sequence of UniProt P42685 (whole entry, looked up): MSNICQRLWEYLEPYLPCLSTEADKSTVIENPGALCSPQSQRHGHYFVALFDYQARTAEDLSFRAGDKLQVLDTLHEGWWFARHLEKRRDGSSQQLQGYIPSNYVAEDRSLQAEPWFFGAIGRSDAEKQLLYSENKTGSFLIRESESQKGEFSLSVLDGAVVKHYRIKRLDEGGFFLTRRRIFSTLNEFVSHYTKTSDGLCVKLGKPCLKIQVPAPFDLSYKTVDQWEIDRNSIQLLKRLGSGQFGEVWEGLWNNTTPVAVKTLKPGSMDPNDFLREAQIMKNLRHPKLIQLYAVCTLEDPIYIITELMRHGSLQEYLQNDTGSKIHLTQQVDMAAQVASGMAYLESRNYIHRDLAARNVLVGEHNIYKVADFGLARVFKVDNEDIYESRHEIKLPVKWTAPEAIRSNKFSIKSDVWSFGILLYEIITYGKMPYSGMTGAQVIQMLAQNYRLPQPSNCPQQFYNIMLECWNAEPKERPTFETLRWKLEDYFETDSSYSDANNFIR
Sequence of UniProt Q12866 (whole entry, looked up): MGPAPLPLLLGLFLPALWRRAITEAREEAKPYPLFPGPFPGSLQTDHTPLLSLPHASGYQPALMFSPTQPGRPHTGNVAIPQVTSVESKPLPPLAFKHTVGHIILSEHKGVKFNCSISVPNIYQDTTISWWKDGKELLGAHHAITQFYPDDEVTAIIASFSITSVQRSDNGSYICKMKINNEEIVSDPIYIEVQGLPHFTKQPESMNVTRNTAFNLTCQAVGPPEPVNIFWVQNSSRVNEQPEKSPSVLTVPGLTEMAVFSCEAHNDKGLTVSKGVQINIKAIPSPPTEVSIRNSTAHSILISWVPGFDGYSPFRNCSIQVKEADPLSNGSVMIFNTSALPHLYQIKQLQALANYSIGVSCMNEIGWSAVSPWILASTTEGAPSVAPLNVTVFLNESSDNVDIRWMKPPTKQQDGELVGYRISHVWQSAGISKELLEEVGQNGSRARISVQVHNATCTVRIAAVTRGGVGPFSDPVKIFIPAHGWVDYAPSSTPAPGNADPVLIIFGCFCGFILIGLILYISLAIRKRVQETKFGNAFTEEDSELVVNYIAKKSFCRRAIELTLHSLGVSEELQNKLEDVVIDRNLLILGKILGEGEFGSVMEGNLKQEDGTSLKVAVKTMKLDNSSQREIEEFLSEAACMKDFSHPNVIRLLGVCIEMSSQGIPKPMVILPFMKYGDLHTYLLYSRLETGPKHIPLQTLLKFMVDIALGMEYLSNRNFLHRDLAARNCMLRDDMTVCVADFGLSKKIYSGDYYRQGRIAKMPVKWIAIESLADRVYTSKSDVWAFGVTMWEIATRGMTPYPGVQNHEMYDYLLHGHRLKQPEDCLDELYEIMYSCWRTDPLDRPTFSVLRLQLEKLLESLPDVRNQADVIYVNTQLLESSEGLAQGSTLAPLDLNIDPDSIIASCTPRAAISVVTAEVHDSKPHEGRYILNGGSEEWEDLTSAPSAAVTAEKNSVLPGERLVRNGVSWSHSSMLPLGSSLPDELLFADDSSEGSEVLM
Sequence of UniProt Q9Y243 (whole entry, looked up): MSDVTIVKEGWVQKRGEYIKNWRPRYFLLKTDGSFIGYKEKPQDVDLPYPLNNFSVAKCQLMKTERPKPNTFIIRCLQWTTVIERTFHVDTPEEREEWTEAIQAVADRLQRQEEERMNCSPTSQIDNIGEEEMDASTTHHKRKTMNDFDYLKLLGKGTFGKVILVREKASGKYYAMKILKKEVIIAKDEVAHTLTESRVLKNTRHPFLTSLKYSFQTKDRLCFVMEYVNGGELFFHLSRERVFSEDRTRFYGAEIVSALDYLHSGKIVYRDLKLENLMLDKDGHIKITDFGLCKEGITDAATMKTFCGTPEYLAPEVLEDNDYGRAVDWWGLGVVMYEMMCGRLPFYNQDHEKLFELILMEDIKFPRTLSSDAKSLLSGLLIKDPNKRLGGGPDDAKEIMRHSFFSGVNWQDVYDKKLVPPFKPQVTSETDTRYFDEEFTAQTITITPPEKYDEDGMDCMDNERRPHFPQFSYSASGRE
Sequence of UniProt P35590 (whole entry, looked up): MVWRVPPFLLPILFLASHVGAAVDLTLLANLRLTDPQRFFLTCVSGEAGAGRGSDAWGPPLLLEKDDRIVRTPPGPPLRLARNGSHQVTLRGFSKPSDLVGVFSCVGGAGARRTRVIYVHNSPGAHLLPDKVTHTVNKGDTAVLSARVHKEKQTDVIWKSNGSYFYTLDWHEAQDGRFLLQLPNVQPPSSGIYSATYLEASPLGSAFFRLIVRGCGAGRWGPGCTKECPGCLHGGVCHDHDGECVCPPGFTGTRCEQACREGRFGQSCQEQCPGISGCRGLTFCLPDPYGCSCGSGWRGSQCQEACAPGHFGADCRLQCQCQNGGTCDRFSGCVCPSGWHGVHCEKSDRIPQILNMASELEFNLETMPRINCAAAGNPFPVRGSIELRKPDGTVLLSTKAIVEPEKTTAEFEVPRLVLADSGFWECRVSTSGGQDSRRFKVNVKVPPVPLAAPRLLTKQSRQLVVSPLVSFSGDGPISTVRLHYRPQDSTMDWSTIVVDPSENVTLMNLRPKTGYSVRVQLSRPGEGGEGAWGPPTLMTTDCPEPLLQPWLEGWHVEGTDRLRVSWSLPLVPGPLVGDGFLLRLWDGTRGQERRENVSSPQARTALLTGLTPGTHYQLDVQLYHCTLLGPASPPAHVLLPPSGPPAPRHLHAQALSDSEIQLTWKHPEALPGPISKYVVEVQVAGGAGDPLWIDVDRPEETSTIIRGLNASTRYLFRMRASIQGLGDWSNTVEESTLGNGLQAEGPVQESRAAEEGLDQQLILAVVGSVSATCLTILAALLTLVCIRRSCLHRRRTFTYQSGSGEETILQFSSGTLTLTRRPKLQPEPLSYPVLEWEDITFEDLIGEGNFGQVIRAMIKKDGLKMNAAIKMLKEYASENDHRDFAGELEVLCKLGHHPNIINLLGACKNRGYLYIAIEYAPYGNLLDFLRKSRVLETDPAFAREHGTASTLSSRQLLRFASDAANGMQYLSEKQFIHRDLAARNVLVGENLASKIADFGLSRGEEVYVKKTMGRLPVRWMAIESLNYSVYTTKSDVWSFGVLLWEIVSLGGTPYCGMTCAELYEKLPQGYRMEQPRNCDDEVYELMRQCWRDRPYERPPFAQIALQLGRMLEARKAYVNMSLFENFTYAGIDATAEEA
Sequence of UniProt P11362 (whole entry, looked up): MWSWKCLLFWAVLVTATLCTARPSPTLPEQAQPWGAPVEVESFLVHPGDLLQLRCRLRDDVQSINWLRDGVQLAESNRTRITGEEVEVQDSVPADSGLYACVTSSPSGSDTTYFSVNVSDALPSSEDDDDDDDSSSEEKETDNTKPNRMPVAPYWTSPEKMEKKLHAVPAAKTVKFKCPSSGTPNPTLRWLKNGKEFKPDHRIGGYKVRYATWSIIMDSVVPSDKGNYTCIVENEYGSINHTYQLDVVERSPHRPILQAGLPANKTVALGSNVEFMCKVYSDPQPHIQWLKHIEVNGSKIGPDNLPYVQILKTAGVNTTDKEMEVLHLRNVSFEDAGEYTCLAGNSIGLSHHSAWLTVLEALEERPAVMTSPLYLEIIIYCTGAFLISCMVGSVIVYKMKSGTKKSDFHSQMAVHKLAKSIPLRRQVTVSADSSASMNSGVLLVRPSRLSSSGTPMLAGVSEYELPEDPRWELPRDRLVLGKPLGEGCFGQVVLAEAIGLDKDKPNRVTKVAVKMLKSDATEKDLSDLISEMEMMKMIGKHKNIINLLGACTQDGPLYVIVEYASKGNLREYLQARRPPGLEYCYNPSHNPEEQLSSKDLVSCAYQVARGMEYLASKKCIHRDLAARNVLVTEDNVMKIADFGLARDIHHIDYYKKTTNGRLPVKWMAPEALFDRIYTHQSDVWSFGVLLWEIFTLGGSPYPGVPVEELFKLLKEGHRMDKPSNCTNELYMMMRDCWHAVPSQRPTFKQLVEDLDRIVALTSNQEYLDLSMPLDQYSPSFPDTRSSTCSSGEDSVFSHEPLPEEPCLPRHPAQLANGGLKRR

Series 1
SMILES: CN(C(=O)c1ccccc1)c1cc(N(C)c2ccc3c(c2)CCc2ccc(C(=O)NCCN4CCOCC4)cc2C3=O)ccc1F
Read-out: cell-free assay
Method: competition with immobilised ligand
Tested at: 1 µM
target	remaining binding
Testis-specific serine/threonine-protein kinase 1 (TSSK1B, Homo sapiens, UniProt Q9BXA7)	65%
Tyrosine-protein kinase receptor Tie-1 (TIE1, Homo sapiens, UniProt P35590)	100%
Serine/threonine-protein kinase pim-3 (PIM3, Homo sapiens, UniProt Q86V86)	91%
TGF-beta receptor type-2 (TGFBR2, Homo sapiens, UniProt P37173)	96%
Protein kinase C eta type (PRKCH, Homo sapiens, UniProt P24723)	95%
Mitogen-activated protein kinase 14 (MAPK14, Homo sapiens, UniProt Q16539)	100%
Mitogen-activated protein kinase kinase kinase 2 (MAP3K2, Homo sapiens, UniProt Q9Y2U5)	92%
Serine/threonine-protein kinase OSR1 (OXSR1, Homo sapiens, UniProt O95747)	83%
Cyclin-dependent kinase 8 (CDK8, Homo sapiens, UniProt P49336)	100%
RAC-gamma serine/threonine-protein kinase (AKT3, Homo sapiens, UniProt Q9Y243)	74%
Phosphatidylinositol 4,5-bisphosphate 3-kinase catalytic subunit alpha isoform (PIK3CA, Homo sapiens, UniProt P42336)	80%

Series 2
Target: ATP-dependent RNA helicase DDX3X, helicase core (DDX3X, Homo sapiens, UniProt O00571, residues 132-607)
Sequence of UniProt O00571 (132-607, looked up): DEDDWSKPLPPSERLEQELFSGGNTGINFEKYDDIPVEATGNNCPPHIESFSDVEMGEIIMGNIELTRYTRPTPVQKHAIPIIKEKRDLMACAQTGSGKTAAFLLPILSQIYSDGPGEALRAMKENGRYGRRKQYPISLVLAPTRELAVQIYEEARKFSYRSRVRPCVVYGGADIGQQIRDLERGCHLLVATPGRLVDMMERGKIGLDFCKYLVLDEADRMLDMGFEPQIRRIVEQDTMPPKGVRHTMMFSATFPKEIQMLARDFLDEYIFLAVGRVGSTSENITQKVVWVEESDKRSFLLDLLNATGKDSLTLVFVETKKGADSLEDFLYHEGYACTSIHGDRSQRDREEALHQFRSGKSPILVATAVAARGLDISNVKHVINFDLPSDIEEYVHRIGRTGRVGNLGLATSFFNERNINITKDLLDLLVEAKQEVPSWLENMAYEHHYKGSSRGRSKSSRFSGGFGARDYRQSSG
Method: RNA Bind-n-Seq
Molecule type: RNA
Medium: in vitro
Tested at: 90 pmol
Notes: 4-mer, random 30-nt RNA, single round
Added: 3 µM DMDA-PatA, 2 mM ADP, 2 mM phosphate
Relative to: input library
Reading: higher = stronger binding
Oligonucleotide	4-mer enrichment [fold]
UGGA	1
AACU	0.824
UAGC	0.857
AUGC	0.89
UUCU	0.84
CCGA	0.927
ACCC	1.1
GGAA	1.18

Series 3
Target: CREM, bZIP domain (human)
Method: DHFR protein complementation
Medium: yeast
Notes: single substitutions, most at no-binding floor
Relative to: wild-type JUN-FOS pair
Reading: higher = stronger binding
Starting sequence: JUN, bZIP domain (human); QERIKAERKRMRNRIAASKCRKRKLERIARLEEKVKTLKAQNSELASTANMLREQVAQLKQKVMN; partner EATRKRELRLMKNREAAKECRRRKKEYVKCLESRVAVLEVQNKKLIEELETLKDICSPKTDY
Substitution	binding fitness
A40N	-1.46 natural log
E32R	-1.45 natural log
L38P	-1.53 natural log
A40H	-1.4 natural log
A49F	-1.2 natural log
V35P	-1.53 natural log
Q55R	-1.44 natural log
R53Q	-1.52 natural log

Series 4
SMILES: CCC(=O)Nc1ccc2ncnc(Nc3cccc(Br)c3)c2c1
Read-out: enzyme activity
Action: inhibitor
Tested at: 0.5 µM
Relative to: control
target	remaining activity
Casein kinase I isoform gamma-2 (CSNK1G2, Homo sapiens, UniProt P78368)	98.1%
MAP kinase-activated protein kinase 2 (MAPKAPK2, Homo sapiens, UniProt P49137)	87.1%
Mitogen-activated protein kinase kinase kinase 5 (MAP3K5, Homo sapiens, UniProt Q99683)	102%
Serine/threonine-protein kinase ULK2 (ULK2, Homo sapiens, UniProt Q8IYT8)	118%
Dual specificity mitogen-activated protein kinase kinase 2 (MAP2K2, Homo sapiens, UniProt P36507)	85.1%
Fibroblast growth factor receptor 1 (FGFR1, Homo sapiens, UniProt P11362)	108%
Tyrosine-protein kinase Mer (MERTK, Homo sapiens, UniProt Q12866)	83.9%
Macrophage-stimulating protein receptor (MST1R, Homo sapiens, UniProt Q04912)	97.2%
Mitogen-activated protein kinase 3 (MAPK3, Homo sapiens, UniProt P27361)	101%
Serine/threonine-protein kinase TBK1 (TBK1, Homo sapiens, UniProt Q9UHD2)	95.6%
Ephrin type-A receptor 3 (EPHA3, Homo sapiens, UniProt P29320)	106%
Tyrosine-protein kinase ABL2 (ABL2, Homo sapiens, UniProt P42684)	96.6%
Tyrosine-protein kinase FRK (FRK, Homo sapiens, UniProt P42685)	66.8%
Serine/threonine-protein kinase TAO2 (TAOK2, Homo sapiens, UniProt Q9UL54)	91.4%

Repeated from above (series 4):
target	remaining activity
Mitogen-activated protein kinase 3 (MAPK3, Homo sapiens, UniProt P27361)	101%
Ephrin type-A receptor 3 (EPHA3, Homo sapiens, UniProt P29320)	106%
Fibroblast growth factor receptor 1 (FGFR1, Homo sapiens, UniProt P11362)	108%
Tyrosine-protein kinase Mer (MERTK, Homo sapiens, UniProt Q12866)	83.9%
Macrophage-stimulating protein receptor (MST1R, Homo sapiens, UniProt Q04912)	97.2%
Tyrosine-protein kinase ABL2 (ABL2, Homo sapiens, UniProt P42684)	96.6%
Mitogen-activated protein kinase kinase kinase 5 (MAP3K5, Homo sapiens, UniProt Q99683)	102%
